Published values pooled from the literature.
Lines come from different studies, so protocols differ. ± gives the spread as reported.
HCRTR1: Orexin/Hypocretin receptor type 1 (HCRTR1, Homo sapiens, UniProt O43613)
Chain of UniProt O43613 (whole entry, looked up): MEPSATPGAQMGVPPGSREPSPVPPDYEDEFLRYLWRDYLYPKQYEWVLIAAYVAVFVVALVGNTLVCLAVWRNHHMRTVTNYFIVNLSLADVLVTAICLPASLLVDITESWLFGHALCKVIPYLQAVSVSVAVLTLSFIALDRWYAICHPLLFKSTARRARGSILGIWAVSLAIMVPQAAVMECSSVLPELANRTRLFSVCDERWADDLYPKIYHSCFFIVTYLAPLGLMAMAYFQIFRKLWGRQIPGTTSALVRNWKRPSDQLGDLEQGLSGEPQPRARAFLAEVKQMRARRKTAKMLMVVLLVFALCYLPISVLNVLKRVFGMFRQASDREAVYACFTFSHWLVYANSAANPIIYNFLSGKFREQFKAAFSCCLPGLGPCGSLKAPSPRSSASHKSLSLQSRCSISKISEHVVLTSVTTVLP

O=C(/C=C/c1ccc(O)c(O)c1)O[C@H](Cc1ccc(O)c(O)c1)C(=O)O
MRT(0-t) (UPLC-MS/MS; Wistar rat, microcirculation dysfunction model, plasma; oral, 100 mg/kg Salvia miltiorrhiza stem-leaf extract FT): 7.75 ± 2.04 h

O=C1Nc2ccccc2C(=NO)CCc2ccccc21
kinetic solubility (nephelometry; aqueous buffer; 30 min, pH 6.5): > 100 µg/mL

CCCCCCCCCCCCCNCC(=O)N(CC(=O)N(CCCCN)CC(=O)N(CCN)CC(=O)N(CC(N)=O)CC(C)C)CC(C)C
acetonitrile at elution (preparative RP-HPLC C18; water to acetonitrile gradient; 0.05% TFA in eluent; higher = more hydrophobic): 68.1%

O=S(=O)(c1ccc(F)cc1)c1cc(F)c(O)c2ncccc12
free concentration (rat Sprague-Dawley male, plasma; oral, 10 mg/kg, 4 h): 48 nM

COc1c(C)c2c(c(O)c1C/C=C(\C)CCC(=O)O)C(=O)OC2
unbound fraction (equilibrium dialysis; dogs, albumin H2 allele, plasma; 12.5 µM): 4.1 ± 1.11%

C=CC(=C)CCC1(C)C(C)CC(O)C23C(=CC(OC(=O)/C=C/C=C/CCCCC)CC12)C(OC(C)=O)OC3OC(C)=O (centres unmarked)
haemolysis (haemolysis; 20 µM): 2%

CC1(C)C2CC[C@]1(C)C(=O)/C2=C/c1ccoc1
maximum hemolysis (human red blood cells; 10 to 300 µg/mL, 30 min): < 14%

C[C@H](Oc1ccc(-c2nc(-c3ccc4[nH]cnc4c3)no2)cc1C(F)(F)F)C(F)(F)F
plasma concentration (cynomolgus monkey, aneurysm model, plasma; 0.1 mg/kg once daily, 4 h post-dose, 2 weeks dosing): 17 ± 4.2 nM

C[C@@H](c1ncncc1F)[C@](O)(Cn1cncn1)c1ccc(F)cc1F
trough concentration (patients, hematological disorders, CYP2C19 normal metabolizers, plasma; 200 mg, 12 h, steady state, median): 1380 ng/mL

N#CN1C[C@H](n2nc(-c3ccc(Oc4ccc(Cl)cn4)cc3)c(C(N)=O)c2N)CCC12CC2
MRT (human, plasma; oral, 100 to 800 mg, single ascending dose): 22.9 to 31.1 h

C[C@]12CC[C@@H]3c4ccc(OS(=O)(=O)O)cc4CC[C@H]3[C@@H]1CCC2=O
permeation rate constant (BME-UV cell monolayer): no effect

CCC(C)n1ncn(-c2ccc(N3CCN(c4ccc(OCC5COC(Cn6cncn6)(c6ccc(Cl)cc6Cl)O5)cc4)CC3)cc2)c1=O (centres unmarked)
gilteritinib exposure (Sprague Dawley rat; 20 mg/kg, CYP3A4 inhibition, together with: gilteritinib 10 mg/kg oral; reference: gilteritinib alone): increased

CC(C)NC[C@@H](C(=O)N1CCN(c2ncnc3c2[C@H](C)C[C@H]3O)CC1)c1ccc(Cl)cc1
AUC(0-∞) (human, Severe hepatic function, plasma; oral, 100 mg single dose, NCI classification, geometric mean): 943 ng·h/mL

COc1cc(Nc2ncc3c(n2)-c2ccc(Cl)cc2C(c2c(F)cccc2OC)=NC3)ccc1C(=O)O
trough concentration (children, UGT1A1 intermediate or poor metabolizers, plasma; oral, 80 mg/m2, day 4): 2060 ± 300 nM

Oc1ccc(C(c2ccc(O)cc2)(C(F)(F)F)C(F)(F)F)cc1
elimination (k10) half-life (measured: free compound; Hsd:Sprague Dawley rat female, plasma; oral gavage, 340 mg/kg single dose): 2.29 h

CS(=O)(=O)n1cc2c(n1)CN([C@H]1CO[C@H](c3cc(F)ccc3F)[C@@H](N)C1)C2
concentration at 168 h (healthy male human, plasma; oral, 1.5 mg single, fasted, geometric mean): 3.3 nM

CCCOc1ccc([C@H]2CNC(=O)N2c2ccc3[nH]cnc3c2)cc1
AUC(0-tlast) (human volunteers fasted, plasma; oral solution, 10 mg single dose, day 1, geometric mean): 61 ng·h/mL

COc1cc2c(cc1OC)C(CC(C)C)N(CC(=O)NCc1ccccc1)CC2 (centres unmarked)
Kb (HCRTR1; calcium signal, antagonist, fluorescence): > 10 µM

CC(=O)N[C@H](CCCCN)C(=O)N[C@H](CC(C)C)C(=O)N[C@@H](CN)C(=O)N[C@H](CO)C(=O)N[C@H](CC(C)C)C(=O)N[C@H](CC(C)C)C(=O)N[C@@H](CN)C(=O)N[C@@H](C(=O)N[C@H](CC(C)C)C(=O)N[C@H](CO)C(=O)N[C@@H](CN)C(=O)N[C@H](C)C(=O)N[C@H](CCCCN)C(=O)N[C@H](C)C(=O)N[C@H](C)C(=O)N[C@H](CCCCN)C(=O)N[C@H](CC(C)C)C(=O)N[C@@H](CN)C(=O)N[C@@H](C(=O)N[C@H](CC(C)C)C(=O)N[C@H](CC(C)C)C(=O)N[C@@H](CN)C(=O)N[C@H](C)C(=O)N[C@H](CC(C)C)C(=O)N[C@H](CO)C(=O)N[C@@H](CN)C(N)=O)[C@H](C)O)[C@H](C)O
self-association parameter (RP-HPLC temperature profiling; pH 2; reference: random coil control): 3.7 min

CCC(CC)COC(=O)[C@H](C)N[P@](=O)(OC[C@H]1O[C@@](C#N)(c2ccc3c(N)ncnn23)[C@H](O)[C@@H]1O)Oc1ccccc1
equilibrium solubility (20% w/w aqueous SBECD; 24 h, pH 1.9, 25 °C, SBECD source 5): 8230 µg/mL

COc1cc2c(cc1OC)C(Cc1ccc(OS(=O)(=O)c3ccc(C)cc3)c(OC)c1)N(CC(=O)NCc1ccccc1)CC2 (centres unmarked)
Kb (HCRTR1; calcium signal, antagonist, fluorescence): > 10 µM

Nc1ncc(-c2cnn(CCO)c2)c2scc(-c3ccc(NC(=O)Nc4cccc(F)c4)cc3)c12
AUC(0-24 h) (patients, plasma; oral, 480 mg twice weekly, day 1): 20400 ± 9870 ng·h/mL

O=C(CCCN1CCCN(c2ccc(Cl)cc2)CC1)c1ccc(F)cc1
elimination rate constant (male Sprague-Dawley rats, plasma; intravenous, 1.7 mg/kg, together with: HAL 0.7 mg/kg plus BCT 0.1 mg/kg): 0.000417 ± 0.000133 s⁻¹

CCCC[N+]1(CC(=O)OC2CCCCCCCCCCC2)CCCCC1.[I-]
aqueous solubility (phosphate buffer with 2% DMSO; 90 min, pH 7.4, theoretical maximum 200 µM): 186 µM

CCCC[C@H](NC(C)=O)C(=O)N[C@H]1CCC(=O)NC[C@@H](C(=O)N[C@@H](Cc2c[nH]c3ccccc23)C(N)=O)NC(=O)[C@H](CCCNC(=N)N)NC(=O)[C@@H](Cc2ccccc2)NC(=O)[C@H](Cc2c[nH]cn2)NC1=O
Vss/F (healthy human, both sexes, plasma; subcutaneous, 1.0 mg once daily, day 7, geometric mean): 191 L

C[C@]1(c2nc3c(C(N)=O)cccc3[nH]2)CCCN1
AUC(0-12h) (human patients, plasma; oral, 20 mg, day -2, cycle 1): 680 ng·h/mL

CN[C@@H]1[C@H](O)[C@H](NC)[C@H]2O[C@]3(O)[C@H](O[C@@H]2[C@H]1O)O[C@H](C)C[C@H]3NC(=O)Cc1ccccn1
parent remaining (glutathione conjugation; human liver S9; 100 µM, 2 h, pH 7.4, together with: glutathione 0.2 mM): 96.7%

O=C(NCCCCNCCCNC(=O)c1cc(Br)c(Br)o1)c1cc(Br)c(Br)o1
CC50 (cell viability, MTT; bone marrow-derived macrophages, BALB/c mouse, female; 24 h): 83 ± 4 µM

CS/C(S)=N/CCCC[S+](C)[O-] (racemic)
mRNA fold change (RT-PCR, measured: Cyp2b15; rat, colon; oral gavage, 200 mg/kg, dosed for four days; reference: vehicle): 1.15

CC1(COc2ccc3c(c2)ncn3-c2ccc3cccc(N4CCC(N)CC4)c3n2)COC1
AUC(0-48h) (human; oral, 100 mg/m2, first dose, crushed in applesauce; reference: whole tablets): no effect

C[C@]12CC[C@@H]3c4ccc(O)cc4CC[C@H]3[C@@H]1C[C@@H](O)[C@@H]2O
median serum concentration (GC-MS; breast cancer women on NSAI, serum; vaginal, 0.03 mg, 2 h, day 0): 0.0696 ng/mL

Cn1c(=O)cc(N2CCC[C@@H](N)C2)n(Cc2ccccc2C#N)c1=O
AUC (male ICR mouse, plasma; oral, 3 mg/kg, 24 h): 3460 ng·h/mL

CCN1C(=O)CNc2ncc(-c3ccc(-c4nc[nH]n4)nc3C)nc21
AUC(0-12h) (human, plasma; oral, 15 mg twice daily, multiple doses): 1030 ng·h/mL

colistin methanesulfonate
volume of distribution (one-compartment PK model; rat; i.p., 20 mg/kg colistin base activity): 0.199 ± 0.0846 L/kg

Cc1nc2cccc(OCC(C)(C)C(=O)NC(C)C)c2c(N)c1C(=O)O
half-life (female Sprague-Dawley rat, plasma; oral gavage, 30 mg/kg, day 7): 1.39 h

NC(=O)CC[C@@H]1NC(=O)[C@H](Cc2ccccc2)NC(=O)[C@H](Cc2ccc(O)cc2)NC(=O)CCSSC[C@@H](C(=O)N2CCC[C@H]2C(=O)N[C@H](CCCN=C(N)N)C(=O)NCC(N)=O)NC(=O)[C@H](CC(N)=O)NC1=O
freeze-thaw stability (UPLC-MS/MS; human plasma; 156.23 pg/mL, three cycles): 91.1%

S=C(NCCCc1c[nH]cn1)NCCCN(Cc1ccc(Cl)c(Cl)c1)c1ccc(Br)cn1
plasma concentration (male C57BL/6 mice, plasma; intraperitoneal, 30 mg/kg, 4 h): 2560 ng/mL

COc1cc(/C=C/C(=O)CC(=O)/C=C/c2ccc(O)c(OC)c2)ccc1O
brain uptake ratio (I-125 label; C57BL/6J mouse, hippocampus; intranasal vs intraperitoneal, 10 µg/mouse IN, 100 µg/mouse IP, 4 h; reference: intranasal over intraperitoneal): 5.88

For quick reference, copied from above:
CCN1C(=O)CNc2ncc(-c3ccc(-c4nc[nH]n4)nc3C)nc21
AUC(0-12h) (human, plasma; oral, 15 mg twice daily, multiple doses): 1030 ng·h/mL

colistin methanesulfonate
volume of distribution (one-compartment PK model; rat; i.p., 20 mg/kg colistin base activity): 0.199 ± 0.0846 L/kg

Cc1nc2cccc(OCC(C)(C)C(=O)NC(C)C)c2c(N)c1C(=O)O
half-life (female Sprague-Dawley rat, plasma; oral gavage, 30 mg/kg, day 7): 1.39 h

NC(=O)CC[C@@H]1NC(=O)[C@H](Cc2ccccc2)NC(=O)[C@H](Cc2ccc(O)cc2)NC(=O)CCSSC[C@@H](C(=O)N2CCC[C@H]2C(=O)N[C@H](CCCN=C(N)N)C(=O)NCC(N)=O)NC(=O)[C@H](CC(N)=O)NC1=O
freeze-thaw stability (UPLC-MS/MS; human plasma; 156.23 pg/mL, three cycles): 91.1%

S=C(NCCCc1c[nH]cn1)NCCCN(Cc1ccc(Cl)c(Cl)c1)c1ccc(Br)cn1
plasma concentration (male C57BL/6 mice, plasma; intraperitoneal, 30 mg/kg, 4 h): 2560 ng/mL

COc1cc(/C=C/C(=O)CC(=O)/C=C/c2ccc(O)c(OC)c2)ccc1O
brain uptake ratio (I-125 label; C57BL/6J mouse, hippocampus; intranasal vs intraperitoneal, 10 µg/mouse IN, 100 µg/mouse IP, 4 h; reference: intranasal over intraperitoneal): 5.88
